Results pooled from the literature.
A part holds a random share of what one study measured. Substitutions count along the parent as printed.

Set 1
Target: Runt-related transcription factor 1, full length (RUNX1, Homo sapiens, UniProt Q01196-8, residues 1-480)
Method: protein-binding microarray
Form: hairpin DNA
Matrix: in vitro
Tested at: not given
Notes: whole hairpin DNA, median over replicate spots
Relative to: not given
Direction: higher = stronger binding
Measurement: median fluorescence
GAGGCCCAACCGCACCAGCCTCCTGGCTGGTGCGGTTGGGCCTCACACTC (5mC at 15): 3300 a.u.
GAGGCCTGTCCGGGTTGGCCTCCTGGCCAACCCGGACAGGCCTCACACTC (5mC at 11): 1810 a.u.
GAGGCCTGTTGTGCGTGGCCTCCTGGCCACGCACAACAGGCCTCACACTC: 1800 a.u.
GAGGCCCGTTGCGGTTGGCCTCCTGGCCAACCGCAACGGGCCTCACACTC (5mC at 7): 6090 a.u.
GAGGCCTGTTGCGGCTGGCCTCCTGGCCAGCCGCAACAGGCCTCACACTC: 2210 a.u.
GAGGCCCAACCGCAACAGCCTCCTGGCTGTTGCGGTTGGGCCTCACACTC (5mC at 33): 2980 a.u.
CTCAGTTCTGTCGGCTGGACTCCTGTCCAGCCGACAGAACTGAGACACTC (5mC at 32): 1670 a.u.
GAGGCCTGTCGCGGCTGGCCTCCTGGCCAGCCGCGACAGGCCTCACACTC: 1980 a.u.

Set 2
Target: NFE2, bZIP domain (human)
Method: DHFR protein complementation
Matrix: yeast
Notes: single substitutions, most at no-binding floor
Relative to: wild-type JUN-FOS pair
Direction: higher = stronger binding
Measurement: binding fitness
Starting sequence: JUN, bZIP domain (human); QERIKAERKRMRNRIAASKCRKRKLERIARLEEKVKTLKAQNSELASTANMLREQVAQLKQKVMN; partner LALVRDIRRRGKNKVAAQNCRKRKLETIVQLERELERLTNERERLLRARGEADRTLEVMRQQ
A40T: -1.4 natural log
S47Q: -1.34 natural log
K34C: -1.45 natural log
V56R: -1.38 natural log
E54N: -1.32 natural log
A57K: -1.49 natural log
S43M: -1.47 natural log
L38W: -1.39 natural log

Set 3
Target: TAR DNA-binding protein 43, full length, His tag (TARDBP, Homo sapiens, UniProt Q13148, residues 1-414)
Method: RNA Bind-n-Seq
Form: RNA
Matrix: in vitro
Tested at: 20 nM
Notes: 6-mer, flanks averaged, single round
Together with: 150 mM KCl
Relative to: input library
Direction: higher = stronger binding
Measurement: 6-mer enrichment (R)
CGAUAG: 0.807
AACUAC: 0.612
ACGAAC: 0.666
AGCGAA: 0.847
UGAAGA: 0.858
AGUGGG: 3.82
CCUUGC: 0.713
CCCAGC: 0.688

Single results of other studies
NSNINVINY — binding (HLA class I histocompatibility antigen, A alpha chain, allele A*80:01 (Homo sapiens, UniProt P04439); peptide-MHC binding; peptide; concentration not given): inactive
